Assay results collected from several papers.
Each numbered part is a random draw from the data of one study; scales do not carry over between parts. “And” joins repeats or separate records; there may be more than shown.
Chain of UniProt P78362 (whole entry, looked up): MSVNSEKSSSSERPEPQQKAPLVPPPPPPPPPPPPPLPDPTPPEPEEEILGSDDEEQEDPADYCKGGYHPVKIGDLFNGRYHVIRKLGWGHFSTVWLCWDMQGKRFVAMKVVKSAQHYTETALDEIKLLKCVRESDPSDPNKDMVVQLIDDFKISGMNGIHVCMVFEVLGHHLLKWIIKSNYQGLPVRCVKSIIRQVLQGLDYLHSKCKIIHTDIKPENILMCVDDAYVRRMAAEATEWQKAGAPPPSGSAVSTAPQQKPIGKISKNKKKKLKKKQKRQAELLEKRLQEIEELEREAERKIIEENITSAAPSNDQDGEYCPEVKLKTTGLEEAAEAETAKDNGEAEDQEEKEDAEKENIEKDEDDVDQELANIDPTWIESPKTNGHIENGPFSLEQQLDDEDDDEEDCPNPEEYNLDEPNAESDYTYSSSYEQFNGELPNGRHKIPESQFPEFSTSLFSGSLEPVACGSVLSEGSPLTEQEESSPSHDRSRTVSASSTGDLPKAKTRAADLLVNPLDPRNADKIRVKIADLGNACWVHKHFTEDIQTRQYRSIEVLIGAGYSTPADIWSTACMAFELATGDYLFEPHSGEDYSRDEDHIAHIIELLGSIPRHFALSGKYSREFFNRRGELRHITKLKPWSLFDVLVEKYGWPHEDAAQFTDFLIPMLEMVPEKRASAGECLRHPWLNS
Chain of UniProt P36507 (whole entry, looked up): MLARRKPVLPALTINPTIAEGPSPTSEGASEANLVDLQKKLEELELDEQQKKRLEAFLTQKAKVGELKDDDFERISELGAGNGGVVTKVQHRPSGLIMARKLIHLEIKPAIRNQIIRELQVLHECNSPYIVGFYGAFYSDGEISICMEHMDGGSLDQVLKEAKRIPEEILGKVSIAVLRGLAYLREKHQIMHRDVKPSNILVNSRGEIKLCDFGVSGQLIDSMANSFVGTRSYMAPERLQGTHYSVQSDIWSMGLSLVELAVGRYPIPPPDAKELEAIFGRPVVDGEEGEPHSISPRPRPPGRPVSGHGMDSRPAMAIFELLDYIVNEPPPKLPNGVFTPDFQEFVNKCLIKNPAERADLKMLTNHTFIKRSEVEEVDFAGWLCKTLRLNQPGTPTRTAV
Chain of UniProt P31749 (whole entry, looked up): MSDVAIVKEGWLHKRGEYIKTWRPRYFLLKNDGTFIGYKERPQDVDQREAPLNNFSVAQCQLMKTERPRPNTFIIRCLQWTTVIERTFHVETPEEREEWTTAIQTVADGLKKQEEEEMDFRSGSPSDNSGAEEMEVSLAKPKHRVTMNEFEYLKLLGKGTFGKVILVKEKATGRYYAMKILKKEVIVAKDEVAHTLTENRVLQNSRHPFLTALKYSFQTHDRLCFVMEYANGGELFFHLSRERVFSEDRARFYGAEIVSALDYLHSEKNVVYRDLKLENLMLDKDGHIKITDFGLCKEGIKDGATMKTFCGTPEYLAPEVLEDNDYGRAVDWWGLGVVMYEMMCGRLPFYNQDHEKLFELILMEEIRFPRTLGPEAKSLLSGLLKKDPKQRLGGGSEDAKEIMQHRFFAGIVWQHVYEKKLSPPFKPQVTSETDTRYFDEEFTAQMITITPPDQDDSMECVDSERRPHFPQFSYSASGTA
Chain of UniProt P49759 (whole entry, looked up): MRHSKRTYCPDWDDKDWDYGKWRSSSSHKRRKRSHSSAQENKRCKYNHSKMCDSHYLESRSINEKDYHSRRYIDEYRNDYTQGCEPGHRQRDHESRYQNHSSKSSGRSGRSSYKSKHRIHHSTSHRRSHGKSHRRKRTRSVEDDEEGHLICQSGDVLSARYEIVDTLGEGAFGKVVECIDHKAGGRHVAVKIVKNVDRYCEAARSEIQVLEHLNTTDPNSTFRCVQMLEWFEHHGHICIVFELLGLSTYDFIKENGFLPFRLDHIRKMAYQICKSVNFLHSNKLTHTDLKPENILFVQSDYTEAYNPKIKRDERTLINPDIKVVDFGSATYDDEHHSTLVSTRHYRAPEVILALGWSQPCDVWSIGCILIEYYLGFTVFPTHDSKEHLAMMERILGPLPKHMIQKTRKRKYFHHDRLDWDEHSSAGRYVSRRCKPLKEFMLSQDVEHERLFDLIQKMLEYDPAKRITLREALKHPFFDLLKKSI
Chain of UniProt Q8NG66 (whole entry, looked up): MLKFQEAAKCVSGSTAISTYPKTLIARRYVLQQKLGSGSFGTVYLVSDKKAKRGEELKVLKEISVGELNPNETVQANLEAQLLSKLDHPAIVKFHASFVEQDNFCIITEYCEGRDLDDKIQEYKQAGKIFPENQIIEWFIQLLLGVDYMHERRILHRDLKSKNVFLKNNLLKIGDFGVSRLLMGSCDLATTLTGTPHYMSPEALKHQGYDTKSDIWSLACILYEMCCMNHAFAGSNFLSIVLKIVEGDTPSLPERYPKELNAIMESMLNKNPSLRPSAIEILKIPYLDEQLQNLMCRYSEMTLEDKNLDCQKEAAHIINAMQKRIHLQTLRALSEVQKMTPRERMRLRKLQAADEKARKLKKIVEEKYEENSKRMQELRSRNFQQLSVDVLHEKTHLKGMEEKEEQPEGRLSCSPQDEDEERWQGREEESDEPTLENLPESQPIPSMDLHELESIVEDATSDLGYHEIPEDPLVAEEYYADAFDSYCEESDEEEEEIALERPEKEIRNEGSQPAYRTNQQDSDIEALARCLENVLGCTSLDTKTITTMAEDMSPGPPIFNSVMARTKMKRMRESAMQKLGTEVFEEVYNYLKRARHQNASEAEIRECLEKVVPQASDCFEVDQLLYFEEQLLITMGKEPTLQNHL
Chain of UniProt Q13043 (whole entry, looked up): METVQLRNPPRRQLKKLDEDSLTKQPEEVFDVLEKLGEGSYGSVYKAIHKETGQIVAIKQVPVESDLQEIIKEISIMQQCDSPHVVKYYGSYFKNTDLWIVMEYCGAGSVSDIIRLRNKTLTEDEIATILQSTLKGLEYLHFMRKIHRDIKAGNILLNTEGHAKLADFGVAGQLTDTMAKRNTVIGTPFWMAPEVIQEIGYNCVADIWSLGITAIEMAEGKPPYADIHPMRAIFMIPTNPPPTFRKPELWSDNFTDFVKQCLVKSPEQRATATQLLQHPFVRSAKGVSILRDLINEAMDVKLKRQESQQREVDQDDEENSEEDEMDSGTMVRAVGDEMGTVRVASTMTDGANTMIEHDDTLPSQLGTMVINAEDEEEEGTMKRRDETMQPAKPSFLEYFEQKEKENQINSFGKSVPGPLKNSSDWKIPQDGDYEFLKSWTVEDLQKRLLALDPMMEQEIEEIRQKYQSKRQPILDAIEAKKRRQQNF

Set 1
SMILES: CC(C)(O)c1cncc(-c2nc3ccc(F)cc3n2C2CC2)c1
Observed: cell-free assay
Method: competition with immobilised ligand
Tested at: 1 µM
| target | remaining binding |
| --- | --- |
| Myosin light chain kinase, smooth muscle (MYLK, Homo sapiens, UniProt Q15746) | 80% |
| RAC-alpha serine/threonine-protein kinase (AKT1, Homo sapiens, UniProt P31749) | 100% |
| SRSF protein kinase 2 (SRPK2, Homo sapiens, UniProt P78362) | 86% |
| Serine/threonine-protein kinase 4 (STK4, Homo sapiens, UniProt Q13043) | 100% |
| Dual specificity protein kinase CLK1 (CLK1, Homo sapiens, UniProt P49759) | 94% |
| Dual specificity mitogen-activated protein kinase kinase 2 (MAP2K2, Homo sapiens, UniProt P36507) | 100% |
| Serine/threonine-protein kinase Nek11 (NEK11, Homo sapiens, UniProt Q8NG66) | 100% |

Set 2
Cell line: 451Lu
| Compound | IC50 |
| --- | --- |
| O=C1NCCN1CCN1CCC(c2cn(-c3ccc(F)cc3)c3ccc(Cl)cc23)CC1 | 5.9 µM |
| CN(C)CC/C=C1/c2ccccc2Sc2ccc(Cl)cc21 | 34.8 µM |
| CN(C)CCC=C1c2ccccc2CCc2ccccc21 | 70.9 µM |
| CNCCCN1c2ccccc2CCc2ccccc21 | 64.1 µM |
| CCOC(=O)C1=C(COCCN)NC(C)=C(C(=O)OC)C1c1ccccc1Cl (stereo not shown) | 20.8 µM |

Set 3
Target: Proto-oncogene tyrosine-protein kinase receptor Ret (RET, Homo sapiens, UniProt P07949)
Chain of UniProt P07949 (whole entry, looked up): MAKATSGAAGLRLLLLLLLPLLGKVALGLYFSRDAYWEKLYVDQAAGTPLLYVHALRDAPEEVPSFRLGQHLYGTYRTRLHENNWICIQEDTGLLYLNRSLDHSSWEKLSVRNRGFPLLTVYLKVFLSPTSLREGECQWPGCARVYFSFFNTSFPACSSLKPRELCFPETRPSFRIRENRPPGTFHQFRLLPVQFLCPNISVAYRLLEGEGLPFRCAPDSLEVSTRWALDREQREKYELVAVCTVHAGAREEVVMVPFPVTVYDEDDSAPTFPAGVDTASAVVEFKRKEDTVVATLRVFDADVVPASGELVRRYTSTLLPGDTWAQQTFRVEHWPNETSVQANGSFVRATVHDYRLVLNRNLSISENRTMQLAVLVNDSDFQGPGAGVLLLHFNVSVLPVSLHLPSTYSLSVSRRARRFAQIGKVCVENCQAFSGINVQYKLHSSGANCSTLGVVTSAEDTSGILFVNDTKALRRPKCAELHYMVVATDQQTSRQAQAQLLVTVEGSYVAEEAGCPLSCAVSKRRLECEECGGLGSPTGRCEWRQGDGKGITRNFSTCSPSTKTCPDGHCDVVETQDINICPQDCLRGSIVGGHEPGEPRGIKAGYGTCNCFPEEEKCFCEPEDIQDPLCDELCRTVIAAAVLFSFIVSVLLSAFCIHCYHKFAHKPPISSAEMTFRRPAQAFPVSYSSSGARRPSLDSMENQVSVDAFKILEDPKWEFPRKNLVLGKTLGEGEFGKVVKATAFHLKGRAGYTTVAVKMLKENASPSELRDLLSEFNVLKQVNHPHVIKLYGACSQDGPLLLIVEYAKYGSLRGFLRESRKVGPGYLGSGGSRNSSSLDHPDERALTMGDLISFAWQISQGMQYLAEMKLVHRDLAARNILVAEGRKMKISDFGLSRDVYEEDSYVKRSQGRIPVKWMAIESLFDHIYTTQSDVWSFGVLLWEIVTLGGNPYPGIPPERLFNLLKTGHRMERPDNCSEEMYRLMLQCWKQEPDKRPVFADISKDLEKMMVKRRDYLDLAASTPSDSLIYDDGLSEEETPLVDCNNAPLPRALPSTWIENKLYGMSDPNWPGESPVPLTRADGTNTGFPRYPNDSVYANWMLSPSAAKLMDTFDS
Observed: enzyme activity
Action: inhibitor
Tested at: 0.5 µM
Relative to: control
| SMILES | remaining activity [%] |
| --- | --- |
| OCC(O)CCON=C1C(c2c(O)[nH]c3ccccc23)=Nc2ccccc21 (stereo not shown) | 1.22 |
| CN(C)c1ccc(C=C2C(=O)Nc3ccccc32)cc1 | 78 |
| COc1cc2ncnc(Nc3ccc(Oc4ccccc4)cc3)c2cc1OC | 40.6 |
| COc1ccc(CNC(=O)Nc2ncc([N+](=O)[O-])s2)cc1 | 97.9 |
| COc1ccc(OC)c2c(=S)c3ccccc3[nH]c12 | 82.8 |
| COc1cc2ncnc(Nc3ccc(F)c(Cl)c3)c2cc1OCCCN1CCOCC1 | 76.9 |
| COc1ccc(C(=O)Nc2sc3c(c2C(N)=O)CCCC3)cc1OC | 102 |
| Cc1ccc(NC(=O)c2ccc(CN3CCN(C)CC3)cc2)cc1Nc1nc(-c2cccnc2)cs1 | 96.4 |
| O=c1c2ccccc2[nH]c(=S)n1CCN1CCC(=C(c2ccc(F)cc2)c2ccc(F)cc2)CC1 | 106 |
| N#CC(C#N)=C(N)/C(C#N)=C/c1ccc(O)cc1 | 110 |
| O=C(CCCc1ccc(-c2ccccc2F)cc1)Nc1ccc(O)cc1 | 111 |
| O=C1NC(=O)C(c2cn(CCCO)c3ncccc23)=C1c1cnccn1 | 54.5 |
| CO[C@H]1C[C@@H]2CC[C@@H](C)[C@@](O)(O2)C(=O)C(=O)N2CCCC[C@H]2C(=O)O[C@H]([C@H](C)C[C@@H]2CC[C@@H](O)[C@H](OC)C2)CC(=O)[C@H](C)/C=C(\C)[C@@H](O)[C@@H](OC)C(=O)[C@H](C)C[C@H](C)/C=C/C=C/C=C/1C | 98.7 |
| Nc1ncnc2n[nH]c(Nc3ccc(F)cc3)c12 | 78.1 |

Set 4
Cell line: mouse MPNST tumor cells
Method: high-content nuclear imaging
Item: cell number
Tested at: 10 µM
Time: 12 h
Notes: mean of 2 replicates
Relative to: plate mean
Direction: higher = more cells
| SMILES | nuclei count |
| --- | --- |
| Nc1nc(=O)n([C@@H]2CS[C@H](CO)O2)cc1F | 1.25 z-score |
| Cn1c(=O)c2nc[nH]c2n(C)c1=O | 0.38 z-score and 2.58 z-score |
| Clc1cccc(Cl)c1CSc1nnc(-c2cnccn2)s1 | -3.61 z-score |
| Cc1cc(=O)oc2c(C=O)c(O)ccc12 | 0.186 z-score |
| CCN(CC)CC1CCCCN1CC(=O)N1c2ccccc2C(=O)Nc2cccnc21 (stereo not shown) | 1.63 z-score |
| CC#C[C@]1(O)CC[C@H]2[C@@H]3CCC4=CC(=O)CCC4=C3[C@@H](c3ccc(N(C)C)cc3)C[C@@]21C | 4.34 z-score and 0.925 z-score and 6.61 z-score |
| CC(C)(C)Nc1nc(Nc2ccc(C(N)=O)cc2)cc(N)c1C#N | 1.69 z-score |
| CC(C)C(NC(=O)Cn1c(-c2ccccc2)ncc(N)c1=O)C(=O)c1nnc(C(C)(C)C)o1 (stereo not shown) | 1.46 z-score |

Repeated from above (set 2):
| Compound | IC50 |
| --- | --- |
| CN(C)CCC=C1c2ccccc2CCc2ccccc21 | 70.9 µM |
| CNCCCN1c2ccccc2CCc2ccccc21 | 64.1 µM |
| CCOC(=O)C1=C(COCCN)NC(C)=C(C(=O)OC)C1c1ccccc1Cl (stereo not shown) | 20.8 µM |
